Literature values, collected from citations in different studies.
Numbers after ± are the reported error.

Nc1nc2[nH]c(CCCc3ccc(C(=O)N[C@@H](CCC(=O)O)C(=O)O)s3)cc2c(=O)[nH]1  IC50 (KB; cell growth; without folic acid): 0.26 nM
C=C1C(=O)O[C@@H]2/C=C(/CO)C3=CC(=O)[C@@](C)(C[C@@H](OC(=O)/C(C)=C/C)[C@@H]12)O3  IC50 (human neutrophils; elastase release, inhibitor; added: fMLF): 16800 nM
COc1ccc(N(C)c2nc(C)nc3cc[nH]c23)cc1  IC50 (MDA-MB-435; cell growth): 96 ± 5 nM
O=c1c2ccccc2[se]n1-c1ccccc1  IC50 (guinea pig alveolar macrophages; superoxide generation): 20000 nM
Nc1nc2[nH]c(CCCCCCc3ccc(C(=O)N[C@@H](CCC(=O)O)C(=O)O)cc3)cc2c(=O)[nH]1  IC50 (RT16 (CHO expressing human FRα); cell growth, inhibitor): 162 nM
C=C1C(=O)O[C@H]2[C@H]1CC/C(C)=C/CC[C@@]1(C)O[C@@H]21  IC50 (U-87 MG; cell growth, inhibitor): 8800 ± 2100 nM
COc1ccc(N(C)c2nc(C)nc3[nH]ccc23)cc1  IC50 (HeLa expressing WT βIII-tubulin; cell growth): 186 ± 21 nM
COC1=C(OC)[C@H](O)[C@H](C/C=C(\C)CC/C=C(\C)CCC=C(C)C)[C@@H](C)C1=O  IC50 (Hep3B; cell growth; 10% FBS; 72 h): 130 ± 20 nM
CCOc1cc(C(C)(C)C)ccc1C1=N[C@@](C)(c2ccc(Cl)cc2)[C@@](C)(c2ccc(Cl)cc2)N1C(=O)N1CCN(CCCS(C)(=O)=O)CC1  IC50 (TP53 wild-type cell lines; cell growth): 440 nM
CC(C)(O)c1cc2nn(CCS(C)(=O)=O)cc2cc1NC(=O)c1cccc(C(F)(F)F)n1  IC50 (rat splenic cells; TNF-alpha secretion, inhibitor; 24 h, added: LPS 0.1 µg/mL): 1270 nM
C=C(C)C(O)Cc1c(O)ccc2ccc(=O)oc12 (stereo not shown)  IC50 (human neutrophils; elastase release; added: fMLF): 17900 nM
Cc1cc(C)n(-c2nc(NN=Cc3c[nH]c4ccccc34)nc(Nc3ccc(Br)cc3)n2)n1  IC50 (A549 or SK-BR-3): ~5000 nM
O=C(O)/C=C/c1ccc(O)c(O)c1  IC50 (rat bone marrow culture; osteoclastogenesis, inhibitor): 5600 nM
C=C(CO)[C@@H]1CC[C@]2(C)CC[C@]3(C)[C@H](CC[C@@H]4[C@@](C)(CC(=O)O)[C@H](C(C)(C)C(=O)O)CC[C@]43C)[C@@H]12  IC50 (human neutrophils; elastase release; added: fMLF): 2200 nM
Nc1nc2sc(CCCCc3ccc(C(=O)N[C@@H](CCC(=O)O)C(=O)O)cc3)cc2c(=O)[nH]1  IC50 (NCI-IGROV1; cell growth; 96 h, added: folic acid 200 nM): > 1000 nM
COc1cc(/C=C/C(=O)NCCc2ccc(O)cc2)ccc1O  IC50 (RAW264.7; nitric oxide production; 24 h, added: LPS 100 ng/mL): > 50000 nM
COc1ccc(-c2noc(-c3cccs3)c2C(F)(F)F)cc1OC  IC50 (MCF7; cell growth): 2630 nM
CC(C)=CCc1c(O)cc(-c2cc3ccc(O)cc3o2)cc1O  IC50 (HepG2; mRNA level, down-regulation, measured: PCSK9 mRNA): 16800 nM
COC1=CC(=O)c2cc(-c3ccc(OC)c(O)c3)c3cc(O)c(OC)cc3c2C1=O  IC50 (neutrophils; superoxide production; added: fMLF): 990 nM
O=C(Oc1ccc(-n2cccc2)cc1)[c-]1cccc1.O=C(Oc1ccc(-n2cccc2)cc1)[c-]1cccc1.[Fe+2]  IC50 (MCF-10A; cell growth): > 250000 nM
C[C@@]12CCC[C@@](C)(C(=O)O)[C@H]1CC[C@@]13C[C@@H](CC[C@H]12)[C@@](O)(CO)C3  IC50 (human neutrophils; calcium flux, inhibitor; added: fMLF): ~30000 nM
COc1ccc(Sc2cc(OC)c(OC)c(OC)c2)cc1  IC50 (MCF7; cell growth; 96 h, 37 °C): 16 ± 5 nM

A few entries again:
COc1cc(/C=C/C(=O)NCCc2ccc(O)cc2)ccc1O  IC50 (RAW264.7; nitric oxide production; 24 h, added: LPS 100 ng/mL): > 50000 nM
C=C(CO)[C@@H]1CC[C@]2(C)CC[C@]3(C)[C@H](CC[C@@H]4[C@@](C)(CC(=O)O)[C@H](C(C)(C)C(=O)O)CC[C@]43C)[C@@H]12  IC50 (human neutrophils; elastase release; added: fMLF): 2200 nM
